Measurements of several laboratories.
Each numbered part is a random draw from the data of one study; scales do not carry over between parts.
Chain of UniProt Q5XXA6 (whole entry, unmodified, looked up): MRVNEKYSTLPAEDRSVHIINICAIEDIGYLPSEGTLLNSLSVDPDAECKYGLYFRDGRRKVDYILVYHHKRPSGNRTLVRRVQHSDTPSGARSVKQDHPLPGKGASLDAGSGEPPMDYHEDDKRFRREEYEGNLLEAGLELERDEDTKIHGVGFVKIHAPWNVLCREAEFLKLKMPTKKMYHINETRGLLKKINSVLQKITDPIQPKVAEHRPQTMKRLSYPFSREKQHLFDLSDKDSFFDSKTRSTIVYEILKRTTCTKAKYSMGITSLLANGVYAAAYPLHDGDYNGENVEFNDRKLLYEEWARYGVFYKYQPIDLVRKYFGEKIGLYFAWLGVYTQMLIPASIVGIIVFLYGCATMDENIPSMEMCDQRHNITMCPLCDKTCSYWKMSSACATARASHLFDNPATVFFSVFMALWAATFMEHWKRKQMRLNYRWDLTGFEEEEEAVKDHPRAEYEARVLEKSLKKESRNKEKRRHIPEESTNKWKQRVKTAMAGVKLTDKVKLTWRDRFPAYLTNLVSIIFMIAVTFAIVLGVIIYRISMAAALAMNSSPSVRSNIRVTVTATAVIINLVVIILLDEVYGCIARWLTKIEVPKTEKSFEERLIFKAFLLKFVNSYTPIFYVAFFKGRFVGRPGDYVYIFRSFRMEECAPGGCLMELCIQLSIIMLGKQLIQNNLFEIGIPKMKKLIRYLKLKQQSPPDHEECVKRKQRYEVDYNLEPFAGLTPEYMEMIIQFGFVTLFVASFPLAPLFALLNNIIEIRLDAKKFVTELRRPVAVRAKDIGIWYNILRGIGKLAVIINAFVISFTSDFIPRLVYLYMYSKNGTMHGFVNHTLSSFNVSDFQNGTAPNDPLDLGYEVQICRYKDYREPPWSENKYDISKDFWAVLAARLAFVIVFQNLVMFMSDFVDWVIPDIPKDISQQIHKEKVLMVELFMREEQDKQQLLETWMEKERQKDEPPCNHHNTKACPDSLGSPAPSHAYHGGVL
Chain of UniProt P23458 (whole entry, looked up): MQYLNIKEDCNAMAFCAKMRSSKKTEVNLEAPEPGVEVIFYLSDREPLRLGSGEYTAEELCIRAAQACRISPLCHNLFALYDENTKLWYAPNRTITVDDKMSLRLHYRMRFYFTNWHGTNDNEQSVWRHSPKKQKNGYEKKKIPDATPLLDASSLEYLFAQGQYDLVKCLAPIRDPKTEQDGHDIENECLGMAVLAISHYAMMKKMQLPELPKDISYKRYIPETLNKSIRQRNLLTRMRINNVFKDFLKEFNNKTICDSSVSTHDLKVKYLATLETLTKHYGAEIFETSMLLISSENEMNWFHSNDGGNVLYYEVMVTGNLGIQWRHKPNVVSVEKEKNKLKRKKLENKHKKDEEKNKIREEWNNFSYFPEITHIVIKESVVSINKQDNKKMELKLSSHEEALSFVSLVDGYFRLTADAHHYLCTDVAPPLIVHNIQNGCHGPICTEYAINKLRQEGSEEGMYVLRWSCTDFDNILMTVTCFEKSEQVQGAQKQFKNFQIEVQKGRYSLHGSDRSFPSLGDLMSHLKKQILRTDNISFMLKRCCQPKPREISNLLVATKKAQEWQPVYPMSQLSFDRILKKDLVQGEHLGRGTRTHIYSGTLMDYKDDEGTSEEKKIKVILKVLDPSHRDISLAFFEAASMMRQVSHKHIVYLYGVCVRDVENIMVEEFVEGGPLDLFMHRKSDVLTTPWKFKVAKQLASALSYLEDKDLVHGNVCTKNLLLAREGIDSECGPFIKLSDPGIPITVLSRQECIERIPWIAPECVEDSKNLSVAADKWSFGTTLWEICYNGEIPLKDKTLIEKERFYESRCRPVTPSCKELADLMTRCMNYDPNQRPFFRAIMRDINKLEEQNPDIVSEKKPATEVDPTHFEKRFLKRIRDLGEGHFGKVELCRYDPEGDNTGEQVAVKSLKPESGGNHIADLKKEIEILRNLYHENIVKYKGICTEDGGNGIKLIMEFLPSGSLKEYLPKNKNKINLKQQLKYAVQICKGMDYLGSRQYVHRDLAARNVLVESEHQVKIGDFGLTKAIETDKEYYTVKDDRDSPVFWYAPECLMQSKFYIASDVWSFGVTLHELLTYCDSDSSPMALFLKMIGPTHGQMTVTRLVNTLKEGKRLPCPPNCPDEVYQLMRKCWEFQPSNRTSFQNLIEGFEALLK
Chain of UniProt P68400 (whole entry, looked up): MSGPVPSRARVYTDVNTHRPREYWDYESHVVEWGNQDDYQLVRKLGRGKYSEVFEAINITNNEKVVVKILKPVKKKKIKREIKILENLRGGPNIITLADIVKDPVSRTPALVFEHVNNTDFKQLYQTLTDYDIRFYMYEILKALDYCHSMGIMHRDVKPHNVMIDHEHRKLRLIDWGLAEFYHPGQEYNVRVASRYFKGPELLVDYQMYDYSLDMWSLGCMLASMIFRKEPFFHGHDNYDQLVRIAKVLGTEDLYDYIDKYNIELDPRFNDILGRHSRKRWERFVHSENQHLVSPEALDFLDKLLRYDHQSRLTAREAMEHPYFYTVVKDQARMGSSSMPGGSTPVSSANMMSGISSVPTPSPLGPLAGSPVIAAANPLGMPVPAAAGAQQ
Chain of UniProt Q9HCP0 (whole entry, looked up): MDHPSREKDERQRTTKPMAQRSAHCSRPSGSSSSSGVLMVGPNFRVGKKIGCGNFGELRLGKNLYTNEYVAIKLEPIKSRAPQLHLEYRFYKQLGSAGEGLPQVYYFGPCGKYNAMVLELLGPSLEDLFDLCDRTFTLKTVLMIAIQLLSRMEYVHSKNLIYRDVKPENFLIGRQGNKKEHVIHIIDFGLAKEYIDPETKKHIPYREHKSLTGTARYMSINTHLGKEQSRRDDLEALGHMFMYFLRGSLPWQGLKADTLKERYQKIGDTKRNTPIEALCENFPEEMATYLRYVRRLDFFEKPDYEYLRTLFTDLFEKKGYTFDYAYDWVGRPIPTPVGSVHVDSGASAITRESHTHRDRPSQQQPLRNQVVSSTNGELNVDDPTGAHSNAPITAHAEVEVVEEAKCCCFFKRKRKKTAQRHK
Chain of UniProt Q8IVT5 (whole entry, looked up): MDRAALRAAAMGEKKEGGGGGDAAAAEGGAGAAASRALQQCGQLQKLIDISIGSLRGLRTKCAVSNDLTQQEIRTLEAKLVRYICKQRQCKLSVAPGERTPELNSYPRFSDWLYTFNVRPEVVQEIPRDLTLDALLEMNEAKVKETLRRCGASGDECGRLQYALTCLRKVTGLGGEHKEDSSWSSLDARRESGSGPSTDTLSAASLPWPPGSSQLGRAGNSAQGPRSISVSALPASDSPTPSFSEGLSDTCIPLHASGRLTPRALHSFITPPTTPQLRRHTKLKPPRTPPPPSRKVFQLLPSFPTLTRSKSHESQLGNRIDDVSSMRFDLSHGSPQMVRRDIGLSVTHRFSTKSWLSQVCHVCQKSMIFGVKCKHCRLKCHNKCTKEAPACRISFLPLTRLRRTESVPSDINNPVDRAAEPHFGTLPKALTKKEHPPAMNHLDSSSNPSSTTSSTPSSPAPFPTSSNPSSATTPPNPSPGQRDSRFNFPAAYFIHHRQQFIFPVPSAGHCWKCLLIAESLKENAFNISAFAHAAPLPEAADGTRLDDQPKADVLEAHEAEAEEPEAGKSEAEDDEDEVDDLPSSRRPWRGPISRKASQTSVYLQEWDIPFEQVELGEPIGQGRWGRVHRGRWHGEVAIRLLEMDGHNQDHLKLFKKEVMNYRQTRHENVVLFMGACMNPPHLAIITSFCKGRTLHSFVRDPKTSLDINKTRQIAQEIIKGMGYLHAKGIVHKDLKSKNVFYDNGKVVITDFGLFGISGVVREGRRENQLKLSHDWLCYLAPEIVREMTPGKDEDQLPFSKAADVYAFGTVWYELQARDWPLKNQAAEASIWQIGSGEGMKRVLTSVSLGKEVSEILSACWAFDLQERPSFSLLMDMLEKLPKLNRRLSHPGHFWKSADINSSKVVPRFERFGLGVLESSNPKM
Chain of UniProt O43318 (whole entry, looked up): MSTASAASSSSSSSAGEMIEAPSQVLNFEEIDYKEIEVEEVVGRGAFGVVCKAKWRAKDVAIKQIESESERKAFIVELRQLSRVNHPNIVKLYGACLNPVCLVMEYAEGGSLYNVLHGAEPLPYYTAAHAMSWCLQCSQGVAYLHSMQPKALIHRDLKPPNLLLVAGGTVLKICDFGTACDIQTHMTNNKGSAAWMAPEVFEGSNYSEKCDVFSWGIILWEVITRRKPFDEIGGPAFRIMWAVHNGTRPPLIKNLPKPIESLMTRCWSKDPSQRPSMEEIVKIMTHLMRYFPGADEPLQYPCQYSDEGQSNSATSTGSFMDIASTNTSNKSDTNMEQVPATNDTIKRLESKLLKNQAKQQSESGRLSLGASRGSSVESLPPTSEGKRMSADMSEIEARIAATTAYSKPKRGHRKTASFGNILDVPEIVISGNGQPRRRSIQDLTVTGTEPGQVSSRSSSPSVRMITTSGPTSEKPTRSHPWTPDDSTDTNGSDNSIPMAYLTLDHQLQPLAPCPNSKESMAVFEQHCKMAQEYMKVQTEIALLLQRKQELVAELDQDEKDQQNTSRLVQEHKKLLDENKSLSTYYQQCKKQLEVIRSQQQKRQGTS
Chain of UniProt Q9Y6E0 (whole entry, looked up): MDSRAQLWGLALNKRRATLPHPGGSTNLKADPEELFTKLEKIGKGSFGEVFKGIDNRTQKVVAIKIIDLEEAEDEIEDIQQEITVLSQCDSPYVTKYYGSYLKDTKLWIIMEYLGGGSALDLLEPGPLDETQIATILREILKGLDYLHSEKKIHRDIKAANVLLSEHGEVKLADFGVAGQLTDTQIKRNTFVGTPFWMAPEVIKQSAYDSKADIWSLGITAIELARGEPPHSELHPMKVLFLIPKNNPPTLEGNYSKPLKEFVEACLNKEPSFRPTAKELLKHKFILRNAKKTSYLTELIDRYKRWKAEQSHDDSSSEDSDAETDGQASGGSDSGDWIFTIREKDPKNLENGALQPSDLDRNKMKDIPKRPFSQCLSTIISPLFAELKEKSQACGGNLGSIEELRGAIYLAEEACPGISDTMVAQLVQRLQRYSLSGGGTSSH

Study 1 — observed: enzyme activity; concentration: 10 µM
SMILES: Cc1sc(C(=O)NC2COC2)cc1-n1cc(NC(=O)Nc2c(F)cccc2Cl)cn1
target	assay	how to read	remaining activity
KSR1 (Homo sapiens, UniProt Q8IVT5)	inhibitor		103%
RPS6KA1 (Homo sapiens, UniProt Q15418)		reference: untreated control	91%
PDPK1 (Homo sapiens, UniProt O15530)		reference: untreated control	95.2%

Study 2 — observed: cell-free assay; technique: competition with immobilised ligand; concentration: 1 µM
Structure (SMILES): CC(=O)Nc1c(C(C)=O)c(=O)n(C)c2nc(-c3ccc(Cl)cc3Cl)c(-c3ccc(Cl)cc3)cc12
target	remaining binding [%]
LRRK2 (Homo sapiens, UniProt Q5S007, G2019S)	100
EGFR (Homo sapiens, UniProt P00533, G719C)	100
CSNK1G1 (Homo sapiens, UniProt Q9HCP0)	100
STK17B (Homo sapiens, UniProt O94768)	100
MAP3K7 (Homo sapiens, UniProt O43318)	100
EPHB3 (Homo sapiens, UniProt P54753)	100
TEK (Homo sapiens, UniProt Q02763)	91
Tyrosine-protein kinase JAK1, JH2 (JAK1, Homo sapiens, UniProt P23458)	100
PIK3CB (Homo sapiens, UniProt P42338)	100
STK24 (Homo sapiens, UniProt Q9Y6E0)	100
PTK2B (Homo sapiens, UniProt Q14289)	100
CSNK2A1 (Homo sapiens, UniProt P68400)	100

Study 3 — SMILES: C=CCc1ccc(O)c(-c2ccc(O)c(CC=C)c2)c1; observed: chloride current
target	assay	setting	normalized current
Anoctamin-1 (ANO1, Homo sapiens, UniProt Q5XXA6, del476-501/E659A)	inside-out patch clamp	10 µM, membrane voltage 20 mV	0.177
Anoctamin-1 (ANO1, Homo sapiens, UniProt Q5XXA6, del476-501/R541A)	inside-out patch clamp	10 µM, membrane voltage -20 mV	-0.12
Anoctamin-1 (ANO1, Homo sapiens, UniProt Q5XXA6, del476-501/R631A)	inhibitor, whole-cell voltage clamp	3 µM, R605A mutant	0.45
Anoctamin-1 (ANO1, Homo sapiens, UniProt Q5XXA6, del476-501)	whole-cell voltage clamp	30 µM, wild type, I-V at 80 mV, with: 4 µM Ca2+	0.052

Study 4 — cell line: mouse MPNST tumor cells; technique: high-content nuclear imaging; item: cell number; concentration: 10 µM; time: 12 h; setting: mean of 2 replicates; reference: plate mean; direction: higher = more cells
Compound	nuclei count [z-score]
CN1CCN(CCCN2c3ccccc3Sc3ccc(Cl)cc32)CC1	-4.87
CCNC(=O)[C@H]1O[C@@H](n2cnc3c(N)nc(NCCc4ccc(CCC(=O)O)cc4)nc32)[C@H](O)[C@@H]1O	0.809
CS(=O)(=O)c1ccc(-c2cc(Br)sc2-c2ccc(F)cc2)cc1	1.95
C[C@H](CCC(=O)O)[C@H]1CC[C@H]2[C@@H]3C(=O)C[C@@H]4CC(=O)CC[C@]4(C)[C@H]3CC(=O)[C@]12C	1.14
Cc1cc(N2CCCCC2)nc2ccccc12	0.875
